Results gathered from unrelated publications.
A part holds a random share of what one study measured. Positions count from the first letter of the parent shown.

Block 1 — technique: aptamer microarray, sandwich; molecule type: DNA with 2'F-ANA; sample: in vitro; tested at: 200 nM; added: Cy3 exosite-II aptamer, 400 nM; direction: higher = stronger binding; strand: GGTTGGTGTGGTTGG
Target: Prothrombin, mature alpha-thrombin (F2, Homo sapiens, UniProt P00734)
Setting: whole 15-mer aptamer, many near background
Under “mean fluorescence intensity”, `2'F-ANA at 1 2 3 4 5 6 7 8 9 10 11 12 13` is recorded as 50.1 a.u.
`2'F-ANA at 1 3 8 13`: “mean fluorescence intensity” 311 a.u.
`2'F-ANA at 2 4 7 8 10 11 12 13`: “mean fluorescence intensity” 98.4 a.u.
For `2'F-ANA at 1 5 6 7 10 12 15`, “mean fluorescence intensity” read 47.2 a.u.
Under “mean fluorescence intensity”, `2'F-ANA at 1 3 4 5 6 8 10 12 13` is recorded as 47.2 a.u.
`2'F-ANA at 4 5 11 12 15`: “mean fluorescence intensity” 98 a.u.
`2'F-ANA at 2 4 7 8 11 12 15` — result for “mean fluorescence intensity”: 563 a.u.
Under “mean fluorescence intensity”, `2'F-ANA at 6 8 10 11 15` is recorded as 134 a.u.
Under “mean fluorescence intensity”, `2'F-ANA at 2 4 5 6 7 9` is recorded as 71.3 a.u.
Under “mean fluorescence intensity”, `2'F-ANA at 2 3 4 5 7 8 10 12` is recorded as 64.3 a.u.
For `2'F-ANA at 1 2 4 5 8 9 10 12 13`, “mean fluorescence intensity” read 48.6 a.u.
`2'F-ANA at 2 4 5 7 8 9 10 14`: “mean fluorescence intensity” 65.1 a.u.

Block 2 — technique: universal PBM; molecule type: double-stranded DNA, one strand shown; sample: in vitro; tested at: 600 nM; direction: higher = stronger binding
Target: Sal-like protein 4, full length isoform A (SALL4, Homo sapiens, UniProt Q9UJQ4, residues 1-1053)
Chain of UniProt Q9UJQ4 (whole entry, looked up): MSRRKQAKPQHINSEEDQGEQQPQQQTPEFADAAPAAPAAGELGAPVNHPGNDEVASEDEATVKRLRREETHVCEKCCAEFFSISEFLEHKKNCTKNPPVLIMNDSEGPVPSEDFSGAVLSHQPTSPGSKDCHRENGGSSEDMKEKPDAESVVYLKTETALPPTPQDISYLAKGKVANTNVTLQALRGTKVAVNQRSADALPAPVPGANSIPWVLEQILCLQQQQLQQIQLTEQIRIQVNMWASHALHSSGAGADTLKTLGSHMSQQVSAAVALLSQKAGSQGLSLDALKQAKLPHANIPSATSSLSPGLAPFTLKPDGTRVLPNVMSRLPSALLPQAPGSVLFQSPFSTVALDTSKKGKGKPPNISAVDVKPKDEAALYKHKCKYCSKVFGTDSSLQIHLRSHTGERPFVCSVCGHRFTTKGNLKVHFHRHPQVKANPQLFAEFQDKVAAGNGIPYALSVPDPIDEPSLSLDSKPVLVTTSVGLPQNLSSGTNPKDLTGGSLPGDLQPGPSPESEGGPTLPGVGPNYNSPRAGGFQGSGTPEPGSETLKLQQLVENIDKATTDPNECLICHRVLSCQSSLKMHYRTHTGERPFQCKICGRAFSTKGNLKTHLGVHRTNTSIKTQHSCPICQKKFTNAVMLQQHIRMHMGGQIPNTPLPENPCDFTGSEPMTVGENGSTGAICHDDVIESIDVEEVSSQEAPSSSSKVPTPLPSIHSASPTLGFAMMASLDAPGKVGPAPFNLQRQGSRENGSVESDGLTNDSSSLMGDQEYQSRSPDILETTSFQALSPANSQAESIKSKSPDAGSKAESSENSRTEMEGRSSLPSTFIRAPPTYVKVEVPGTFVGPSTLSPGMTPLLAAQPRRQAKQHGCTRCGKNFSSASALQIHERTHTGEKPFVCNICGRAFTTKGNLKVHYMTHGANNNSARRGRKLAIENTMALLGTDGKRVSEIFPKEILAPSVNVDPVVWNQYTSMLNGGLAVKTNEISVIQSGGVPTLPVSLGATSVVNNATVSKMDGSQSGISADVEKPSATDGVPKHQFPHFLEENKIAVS
Setting: 8-mer, flanks averaged, mean of replicates
With `GTATGGAC` the E-score was 0.00978.
`AAACTAGA` gave an E-score of 0.167.
`ATTTAGAA` has an E-score of 0.2.
The E-score of `CTCCCGTC` is reported as -0.182.
With `AGGTCTAG` the E-score was -0.0585.
`CCTAAGGC` has an E-score of -0.314.
`CCGGGAAG` gave an E-score of -0.238.
`ATACAAAA` has an E-score of 0.343.
With `CTCGGTGC` the E-score was -0.388.
With `AAATTAAC` the E-score was 0.266.
With `CCAAAACG` the E-score was -0.0531.
`CACGAAGA` has an E-score of 0.0438.
For `AAAACAAA`, the E-score was 0.291.
`AAGTGAAA` has an E-score of 0.205.
For `AGATTGAC`, the E-score was -0.041.
The E-score of `AGTCTTAC` is reported as 0.0227.
`CCTCTACG` has an E-score of -0.15.

Block 3 — technique: protein binding microarray; molecule type: double-stranded DNA, one strand shown; sample: in vitro; tested at: not given; baseline: not given; direction: higher = stronger binding
Target: Histone acetyltransferase KAT6A, both winged helices, GST fusion (KAT6A, Homo sapiens, UniProt Q92794, residues 1-181)
Setting: 8-mer, flanks averaged, mean of 2 arrays, mostly near background
Residues (chain): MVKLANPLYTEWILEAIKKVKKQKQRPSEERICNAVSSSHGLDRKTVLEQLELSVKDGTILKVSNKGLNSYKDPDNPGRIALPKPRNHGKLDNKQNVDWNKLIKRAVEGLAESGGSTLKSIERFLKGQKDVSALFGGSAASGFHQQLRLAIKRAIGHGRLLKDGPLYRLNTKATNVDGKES
For `CGCTCTCA`, the E-score was 0.126.
For `ACTTGAAC`, the E-score was -0.0922.
With `CCCAGATA` the E-score was -0.213.
The E-score of `GTTGTCTA` is reported as -0.0565.
The E-score of `GAGGGGAA` is reported as -0.0284.
For `GCCGATAC`, the E-score was 0.214.
The E-score of `ATACTCAG` is reported as 0.00425.
For `TAAGTAGA`, the E-score was -0.0698.
The E-score of `AGTATGAC` is reported as -0.153.
The E-score of `GCTACATA` is reported as -0.0547.
The E-score of `GTGGTGCA` is reported as -0.0944.
The E-score of `CGACCTAC` is reported as -0.0102.
`GAAACCGA` gave an E-score of 0.0472.
With `GATCAGCC` the E-score was -0.0983.
`ATAAAGAA` gave an E-score of -0.14.
For `CATGCTGC`, the E-score was -0.0679.
With `CGGCCCCA` the E-score was 0.0633.
`CTAAACGA` gave an E-score of 0.00507.
With `TCCTATCA` the E-score was -0.0581.
For `ACTCTAGG`, the E-score was -0.217.
For `GCGCCCGC`, the E-score was 0.337.
The E-score of `CGAGTTCC` is reported as -0.0194.
`CGCAATTC` gave an E-score of 0.237.
`GCCATCCC` has an E-score of -0.0856.
`AGCGCTGC` has an E-score of 0.309.

Block 4 — target: CEP164, C-terminal peptide (human); technique: DHFR complementation, deep sequencing; sample: yeast; baseline: wild type; direction: higher = weaker binding
Setting: single substitutions, model-inferred values
Starting sequence: PDZK1, PDZ domain 2 (human); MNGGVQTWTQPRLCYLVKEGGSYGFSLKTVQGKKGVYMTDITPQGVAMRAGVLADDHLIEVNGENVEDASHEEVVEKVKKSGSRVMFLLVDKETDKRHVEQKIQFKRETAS; partner HNRVKVYRF
`Y23L`: “binding free energy change” 0.617 kcal/mol.
Under “binding free energy change”, `K18Y` is recorded as 0.606 kcal/mol.
`V61S`: “binding free energy change” 1.35 kcal/mol.
For `L27H`, “binding free energy change” read 1.58 kcal/mol.
`Q6G` — result for “binding free energy change”: -0.0265 kcal/mol.
`L58D`: “binding free energy change” 0.221 kcal/mol.
For `L53Q`, “binding free energy change” read 0.00566 kcal/mol.
`F105T` — result for “binding free energy change”: -0.159 kcal/mol.
`A110M`: “binding free energy change” -0.116 kcal/mol.
`Y15M` — result for “binding free energy change”: 0.183 kcal/mol.
Under “binding free energy change”, `R107P` is recorded as -0.168 kcal/mol.
`K77I`: “binding free energy change” 0.0418 kcal/mol.
`S22P`: “binding free energy change” 0.118 kcal/mol.
`V36C`: “binding free energy change” -0.199 kcal/mol.
`L58V`: “binding free energy change” -0.373 kcal/mol.
`G4A`: “binding free energy change” -0.0114 kcal/mol.

Block 5 — technique: DHFR PCA, deep sequencing; sample: yeast; added: (+)-ABA 710 µM; baseline: wild-type fitted maximum; direction: higher = stronger binding
Target: ABI1, truncated, D143A, DHFR fusion (Arabidopsis thaliana)
Setting: methotrexate growth selection, single substitutions
Starting sequence: PYL1, truncated, DHFR fusion (Arabidopsis thaliana); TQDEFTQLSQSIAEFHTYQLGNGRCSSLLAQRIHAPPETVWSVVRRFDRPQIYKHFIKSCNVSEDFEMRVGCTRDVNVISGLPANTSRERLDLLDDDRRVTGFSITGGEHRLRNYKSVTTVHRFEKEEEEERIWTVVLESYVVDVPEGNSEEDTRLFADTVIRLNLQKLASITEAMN; partner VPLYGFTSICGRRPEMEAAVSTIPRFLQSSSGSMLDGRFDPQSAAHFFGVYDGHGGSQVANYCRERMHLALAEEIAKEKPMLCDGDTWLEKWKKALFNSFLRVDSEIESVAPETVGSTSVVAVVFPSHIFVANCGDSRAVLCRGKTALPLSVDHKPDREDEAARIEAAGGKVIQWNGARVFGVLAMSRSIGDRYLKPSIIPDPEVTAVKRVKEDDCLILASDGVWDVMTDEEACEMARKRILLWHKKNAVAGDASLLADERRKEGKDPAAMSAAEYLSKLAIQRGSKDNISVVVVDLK
`E139C`: “relative binding score” 103%.
For `I52C`, “relative binding score” read 109%.
`R45L`: “relative binding score” 5.32%.
Under “relative binding score”, `N114F` is recorded as 50.4%.
Under “relative binding score”, `Y18Q` is recorded as 97.1%.
`V161C`: “relative binding score” 89.3%.
`L91K`: “relative binding score” -2.16%.
`D159K`: “relative binding score” 74.9%.
`V78H`: “relative binding score” 63.2%.
`M68E` — result for “relative binding score”: 94.5%.
`Q51V` — result for “relative binding score”: 72.8%.
For `R111K`, “relative binding score” read 96.4%.
`E64K` — result for “relative binding score”: 106%.
`S104I`: “relative binding score” 65.6%.
For `R113A`, “relative binding score” read 105%.
`H55I`: “relative binding score” 101%.

Block 6 — technique: Sort-seq; item: YFP reporter; sample: E. coli; setting: PhoQ-PhoP variant library; added: 10 µM Mg2+; baseline: high Mg2+ state; direction: higher = stronger signaling
Substance: PhoQ, residues 284 288 289 292 302 303 SIHLQL
For PhoP, residues 12 14 15 18 19 LHTVL (Escherichia coli, UniProt P23836): fold induction read 1.97.
PhoP, residues 12 14 15 18 19 TQAML (Escherichia coli, UniProt P23836) — fold induction: 16.1.
It gave 21.8 for fold induction (PhoP, residues 12 14 15 18 19 NQCAL (Escherichia coli, UniProt P23836)).

Block 7 — target: CCNA2, cyclin fold, Cln2 fusion (human); technique: yeast growth competition, sequencing; sample: yeast; setting: strong parent motif; baseline: not given; direction: higher = stronger binding
Starting sequence: CUX1 docking peptide (human); SRIRRELFIEEIQ; partner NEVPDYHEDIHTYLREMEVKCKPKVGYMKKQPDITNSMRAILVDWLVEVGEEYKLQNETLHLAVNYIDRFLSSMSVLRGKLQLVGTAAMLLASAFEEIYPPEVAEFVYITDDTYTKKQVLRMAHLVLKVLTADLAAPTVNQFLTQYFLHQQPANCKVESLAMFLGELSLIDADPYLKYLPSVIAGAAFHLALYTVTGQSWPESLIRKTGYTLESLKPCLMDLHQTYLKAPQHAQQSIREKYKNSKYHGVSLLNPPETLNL
`SRARRELFIEEIQ [I3A]` — result for “normalised enrichment score”: 5.71.
For `SRIARELFIEEIQ [R4A]`, “normalised enrichment score” read 2.44.
For `SRIRRELLIEEIQ [F8L]`, “normalised enrichment score” read 0.417.
`SRIRAEAFIEEIQ [R5A L7A]`: “normalised enrichment score” -0.254.
`SRIRKELLIEEIQ [R5K F8L]`: “normalised enrichment score” 0.44.
For `SRIRREAFIEEIQ [L7A]`, “normalised enrichment score” read 0.82.
`SRIRRELFIEEAQ [I12A]` — result for “normalised enrichment score”: 3.52.
`SRIRRELFIEEIA [Q13A]` — result for “normalised enrichment score”: 4.6.
`SRIRRELFAEEIQ [I9A]` — result for “normalised enrichment score”: 4.09.
`SRIRRELAIEEIQ [F8A]` — result for “normalised enrichment score”: 0.871.

Excerpt of the above (block 7):
For `SRIARELFIEEIQ [R4A]`, “normalised enrichment score” read 2.44.
`SRIRRELFAEEIQ [I9A]` — result for “normalised enrichment score”: 4.09.
`SRARRELFIEEIQ [I3A]` — result for “normalised enrichment score”: 5.71.
`SRIRRELFIEEIA [Q13A]` — result for “normalised enrichment score”: 4.6.
`SRIRRELAIEEIQ [F8A]` — result for “normalised enrichment score”: 0.871.
